Assay results gathered from unrelated publications.
Each line is one published result; not all experiments were run side by side. ± marks the error that the study gave.
Method: steady-state kinetics
B1: SACOL1063 (Staphylococcus aureus, UniProt Q5HH30); chain MFSKVNNQKMLEDCFYIRKKVFVEEQGVPEESEIDEYESESIHLIGYDNGQPVATARIRPINETTVKIERVAVMKSHRGQGMGRMLMQAVESLAKDEGFYVATMNAQCHAIPFYESLNFKMRGNIFLEEGIEHIEMTKKLTSLN
B2: BaiA1 (Clostridium scindens, UniProt P07914); chain MKLVQDKITIITGGTRGIGFAAAKLFIENGAKVSIFGETQEEVDTALAQLKELYPEEEVLGFAPDLTSRDAVMAAVGTVAQKYGRLDVMINNAGITMNSVFSRVSEEDFKNIMDINVNGVFNGAWSAYQCMKDAKQGVIINTASVTGIYGSLSGIGYPTSKAGVIGLTHGLGREIIRKNIRVVGVAPGVVDTDMTKGLPPEILEDYLKTLPMKRMLKPEEIANVYLFLASDLASGITATTISVDGAYRP
B3: carbamoyl phosphate synthetase large subunit L648E (Escherichia coli, UniProt P00968); chain PKRTDIKSILILGAGPIVIGQACEFDYSGAQACKALREEGYRVILVNSNPATIMTDPEMADATYIEPIHWEVVRKIIEKERPDAVLPTMGGQTALNCALELERQGVLEEFGVTMIGATADAIDKAEDRRRFDVAMKKIGLETARSGIAHTMEEALAVAADVGFPCIIRPSFTMGGSGGGIAYNREEFEEICARGLDLSPTKELLIDESLIGWKEYEMEVVRDKNDNCIIVCSIENFDAMGIHTGDSITVAPAQTLTDKEYQIMRNASMAVLREIGVETGGSNVQFAVNPKNGRLIVIEMNPRVSRSSALASKATGFPIAKVAAKLAVGYTLDELMNDITGGRTPASFEPSIDYVVTKIPRFNFEKFAGANDRLTTQMKSVGEVMAIGRTQQESLQKALRGLEVGATGFDPKVSLDDPEALTKIRRELKDAGADRIWYIADAFRAGLSVDGVFNLTNIDRWFLVQIEELVRLEEKVAEVGITGLNADFLRQLKRKGFADARLAKLAGVREAEIRKLRDQYDLHPVYKRVDTCAAEFATDTAYMYSTYEEECEANPSTDREKIMVLGGGPNRIGQGIEFDYCCVHASLALREDGYETIMVNCNPETVSTDYDTSDRLYFEPVTLEDVLEIVRIEKPKGVIVQYGGQTPEKLARALEAAGVPVIGTSPDAIDRAEDRERFQHAVERLKLKQPANATVTAIEMAVEKAKEIGYPLVVRPSYVLGGRAMEIVYDEADLRRYFQTAVSVSNDAPVLLDHFLDDAVEVDVDAICDGEMVLIGGIMEHIEQAGVHSGDSACSLPAYTLSQEIQDVMRQQVQKLAFELQVRGLMNVQFAVKNNEVYLIEVNPRAARTVPFVSKATGVPLAKVAARVMAGKSLAEQGVTKEVIPPYYSVKEVVLPFNKFPGVDPLLGPEMRSTGEVMGVGRTFAEAFAKAQLGSNSTMKKHGRALLSVREGDKERVVDLAAKLLKQGFELDATHGTAIVLGEAGINPRLVNKVHEGRPHIQDRIKNGEYTYIINTTSGRRAIEDSRVIRRSALQYKVHYDTTLNGGFATAMALNADATEKVISVQEMHAQIK
B4: cyc1 V329M (Streptomyces coelicolor, UniProt Q9K499); chain MHAFPHGTTATPTAIAVPPSLRLPVIEAAFPRQLHPYWPKLQETTRTWLLEKRLMPADKVEEYADGLCYTDLMAGYYLGAPDEVLQAIADYSAWFFVWDDRHDRDIVHGRAGAWRRLRGLLHTALDSPGDHLHHEDTLVAGFADSVRRLYAFLPATWNARFARHFHTVIEAYDREFHNRTRGIVPGVEEYLELRRLTFAHWIWTDLLEPSSGCELPDAVRKHPAYRRAALLSQEFAAWYNDLCSLPKEIAGDEVHNLGISLITHHSLTLEEAIGEVRRRVEECITEFLAVERDALRFADELADGTVRGKELSGAVRANVGNMRNWFSSMYWFHHESGRYMVDSWDDRSTPPYVNNEAAGEK
B5: HARS1 Y454S (Homo sapiens, UniProt P12081); chain MAERAALEELVKLQGERVRGLKQQKASAELIEEEVAKLLKLKAQLGPDESKQKFVLKTPKGTRDYSPRQMAVREKVFDVIIRCFKRHGAEVIDTPVFELKETLMGKYGEDSKLIYDLKDQGGELLSLRYDLTVPFARYLAMNKLTNIKRYHIAKVYRRDNPAMTRGRYREFYQCDFDIAGNFDPMIPDAECLKIMCEILSSLQIGDFLVKVNDRRILDGMFAICGVSDSKFRTICSSVDKLDKVSWEEVKNEMVGEKGLAPEVADRIGDYVQQHGGVSLVEQLLQDPKLSQNKQALEGLGDLKLLFEYLTLFGIDDKISFDLSLARGLDYYTGVIYEAVLLQTPAQAGEEPLGVGSVAAGGRYDGLVGMFDPKGRKVPCVGLSIGVERIFSIVEQRLEALEEKIRTTETQVLVASAQKKLLEERLKLVSELWDAGIKAELLYKKNPKLLNQLQSCEEAGIPLVAIIGEQELKDGVIKLRSVTSREEVDVRREDLVEEIKRRTGQPLCIC
B6: POLK W214Y/W392H/Y50W (Homo sapiens, UniProt Q9UBT6); chain MGLNDNKAGMEGLDKEKINKIIMEATKGSRFWGNELKKEKQVNQRIENMMQQKAQITSQQLRKAQLQVDRFAMELEQSRNLSNTIVHIDMDAFYAAVEMRDNPELKDKPIAVGSMSMLSTSNYHARRFGVRAAMPGFIAKRLCPQLIIVPPNFDKYRAVSKEVKEILADYDPNFMAMSLDEAYLNITKHLEERQNYPEDKRRYFIKMGSSVENDNPGKEVNKLSEHERSISPLLFEESPSDVQPPGDPFQVNFEEQNNPQILQNSVVFGTSAQEVVKEIRFRIEQKTTLTASAGIAPNTMLAKVCSDKNKPNGQYQILPNRQAVMDFIKDLPIRKVSGIGKVTEKMLKALGIITCTELYQQRALLSLLFSETSHHYFLHISLGLGSTHLTRDGERKSMSVERTFSEINKAEEQYSLCQELCSELAQDLQKERLKGRTVTIKLKNVNFEVKTRASTVSSVVSTAEEIFAIAKELLKTEIDADFPHPLRLRLMGVRISSFPNEEDRKHQQ
B7: UCK2 H117Y (Homo sapiens, UniProt Q9BZX2); chain MAGDSEQTLQNHQQPNGGEPFLIGVSGGTASGKSSVCAKIVQLLGQNEVDYRQKQVVILSQDSFYRVLTSEQKAKALKGQFNFDHPDAFDNELILKTLKEITEGKTVQIPVYDFVSYSRKEETVTVYPADVVLFEGILAFYSQEVRDLFQMKLFVDTDADTRLSRRVLRDISERGRDLEQILSQYITFVKPAFEEFCLPTKKYADVIIPRGADNLVAINLIVQHIQDILNGGPSKRQTNGCLNGYTPSRKRQASESSSRPH
B8: DdmC (Stenotrophomonas maltophilia, UniProt Q5S3I3); chain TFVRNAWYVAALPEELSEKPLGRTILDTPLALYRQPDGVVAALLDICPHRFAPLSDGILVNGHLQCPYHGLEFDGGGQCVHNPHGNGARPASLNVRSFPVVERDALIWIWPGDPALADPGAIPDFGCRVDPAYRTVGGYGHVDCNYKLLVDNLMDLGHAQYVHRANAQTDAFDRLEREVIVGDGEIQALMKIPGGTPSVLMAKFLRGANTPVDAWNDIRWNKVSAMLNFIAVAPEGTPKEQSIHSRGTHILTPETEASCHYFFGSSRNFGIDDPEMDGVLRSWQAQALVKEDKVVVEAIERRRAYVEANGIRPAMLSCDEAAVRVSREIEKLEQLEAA
B9: PduO (Limosilactobacillus reuteri, UniProt Q50EJ2); chain MKIYTKNGDKGQTRIIGKQILYKNDPRVAAYGEVDELNSWVGYTKSLINSHTQVLSNELEEIQQLLFDCGHDLATPADDERHSFKFKQEQPTVWLEEKIDNYTQVVPAVKKFILPGGTQLASALHVARTITRRAERQIVQLMREEQINQDVLIFINRLSDYFFAAARYANYLEQQPDMLYRNSKDVFR
B10: nicX (Pseudomonas putida, UniProt Q88FY1); chain MPVSNAQLTQMFEHVLKLSRVDETQSVAVLKSHYSDPRTVNAAMEAAQRLKAKVYAVELPAFNHPTAMGNDMTAYCGDTALTGNLAAQRALEAADLVVDTMMLLHSPEQEQILKTGTRILLAVEPPEVLARMLPTEDDKRRVLAAETLLKQARSLHVRSKAGSDFHAPLGQYPAVTEYGYADEPGRWDHWPSGFLFTWPNEDSAEGTLVLDVGDIILPFKNYCRERITLEIEKGFITGIHGGFEAEYLRDYMKYFNDPEVYGISHIGWGLQPRAQWTAMGLHDRNDGMCMDARAFYGNFLFSTGPNTEVGGKRKTPCHLDIPLRNCDIYLDDKAVVLAGDVVAPEESRAR
B11: gapN (Streptococcus mutans, UniProt Q59931); chain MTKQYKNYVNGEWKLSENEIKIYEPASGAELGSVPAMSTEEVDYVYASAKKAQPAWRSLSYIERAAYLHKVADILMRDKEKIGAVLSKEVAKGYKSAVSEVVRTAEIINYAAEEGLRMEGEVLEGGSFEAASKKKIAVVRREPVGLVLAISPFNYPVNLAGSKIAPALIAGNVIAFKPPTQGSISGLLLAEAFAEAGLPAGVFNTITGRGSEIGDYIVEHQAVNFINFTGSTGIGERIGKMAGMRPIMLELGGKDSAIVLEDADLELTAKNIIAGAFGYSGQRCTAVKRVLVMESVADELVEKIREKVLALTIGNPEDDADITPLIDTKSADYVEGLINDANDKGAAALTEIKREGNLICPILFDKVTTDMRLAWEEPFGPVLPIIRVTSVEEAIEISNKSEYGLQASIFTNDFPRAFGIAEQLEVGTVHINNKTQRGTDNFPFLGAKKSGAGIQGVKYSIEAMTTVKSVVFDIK
Sequence of UniProt Q6PHW0 (whole entry, looked up): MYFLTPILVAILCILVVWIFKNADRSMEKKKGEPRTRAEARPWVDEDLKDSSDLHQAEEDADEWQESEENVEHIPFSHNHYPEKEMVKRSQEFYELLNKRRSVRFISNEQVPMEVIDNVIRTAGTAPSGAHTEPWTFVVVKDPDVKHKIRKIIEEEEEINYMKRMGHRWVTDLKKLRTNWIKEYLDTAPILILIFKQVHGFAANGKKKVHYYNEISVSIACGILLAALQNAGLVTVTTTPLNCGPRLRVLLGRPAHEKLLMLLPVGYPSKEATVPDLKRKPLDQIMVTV

Ptb (Listeria monocytogenes, UniProt Q8Y7B7)  kcat (CCCCCC(=O)SCCNC(=O)CCNC(=O)[C@H](O)C(C)(C)COP(=O)(O)OP(=O)(O)OC[C@H]1O[C@@H](n2cnc3c(N)ncnc32)[C@H](O)[C@@H]1OP(=O)(O)O; pH 7.5, 25 °C, apparent, poor fit): 47 ± 2.6 s⁻¹
B1 (SACOL1063)  kcat (C[C@@H](O)[C@H](N)C(=O)O; pH 8, 37 °C, Hill coefficient, with: AcCoA 1 mM, L-Thr 0-10 mM): 10.3 s⁻¹
B2 (BaiA1)  kcat (C[C@H](CCC(=O)SCCNC(=O)CCNC(=O)[C@H](O)C(C)(C)COP(=O)(O)OP(=O)(O)OC[C@H]1O[C@@H](n2cnc3c(N)ncnc32)[C@H](O)[C@@H]1OP(=O)(O)O)[C@H]1CC[C@H]2[C@@H]3[C@H](O)C[C@@H]4CC(=O)CC[C@]4(C)[C@H]3CC[C@]12C; pH 8.7, 37 °C, with: NADH): 0.4 s⁻¹
B3  kcat (Nc1ncnc2c1ncn2[C@@H]1O[C@H](COP(=O)(O)OP(=O)(O)OP(=O)(O)O)[C@@H](O)[C@H]1O; pH 7.6, KCl 100 mM, with: glutamine 10 mM, ornithine 10 mM): 3.2 ± 0.2 s⁻¹
LovD A190T/A86V/C40A/C60N/D12G/G275S/H161Y/K26E (Aspergillus terreus)  kcat (CCC(C)(C)C(=O)SCCC(=O)OC; 25 °C, 10% DMSO, with: 2 mM MJA): 0.0435 ± 0.0005 s⁻¹
B4 (cyc1 V329M)  kcat (CC(C)=CCC/C(C)=C/CC/C(C)=C/CO[P@@](=O)(O)OP(=O)(O)O; pH 6.5, 30 °C, with: MgCl2 10 mM): 0.00064 ± 4e-06 s⁻¹
B5 (HARS1 Y454S)  kcat (N[C@@H](Cc1c[nH]cn1)C(=O)O; pH 7.5, 37 °C, KCl 150 mM, with: tRNA(His)): 5.9 ± 0.5 s⁻¹
enzyme (Bifidobacterium adolescentis, UniProt A1A3M6)  kcat (O=[N+]([O-])c1ccc(O[C@H]2OC[C@H](O)[C@H](O)[C@H]2O)cc1; pH 5, 40 °C): 81.5 ± 0.51 s⁻¹
IYD (Homo sapiens, UniProt Q6PHW0)  kcat (Cc1cc(C[C@H](N)C(=O)O)cc(I)c1O; pH 7.4, 25 °C, with: sodium dithionite 0.5%): 0.76 ± 0.05 s⁻¹
B6 (POLK W214Y/W392H/Y50W)  kcat (Nc1ccn([C@H]2C[C@H](O)[C@@H](COP(=O)(O)OP(=O)(O)OP(=O)(O)O)O2)c(=O)n1; pH 7.5, 23 °C, MgCl2 5 mM, with: G template): 0.025 ± 0.002 s⁻¹
B7 (UCK2 H117Y)  kcat (Nc1ccn([C@@H]2O[C@H](CO)[C@@H](O)[C@H]2O)c(=O)n1; pH 7.2, 25 °C, KCl 100 mM, with: ATP 100–200 µM): 6.4 ± 0.7 s⁻¹
B8 (DdmC)  kcat (COc1c(Cl)ccc(Cl)c1C(=O)O; apparent, with: NADH 1 mM): 0.0467 ± 0.005 s⁻¹
STM4540 (Salmonella enterica, UniProt Q8ZJX7)  kcat (N[C@@H](CCCCNCC(=O)[C@@H](O)[C@H](O)[C@H](O)COP(=O)(O)O)C(=O)O; pH 7.5, 37 °C): 0.967 ± 0.0383 s⁻¹
B9 (PduO)  kcat (Nc1ncnc2c1ncn2[C@@H]1O[C@H](COP(=O)(O)OP(=O)(O)OP(=O)(O)O)[C@@H](O)[C@H]1O; pH 8, 37 °C, anoxic, with: cob(I)alamin): 0.026 ± 0.001 s⁻¹
B10 (nicX)  kcat (Oc1ccc(O)nc1; pH 7.5, 20 °C, with: O2; Fe2+ 0.025 mM): 1.28 ± 0.03 s⁻¹
B11 (gapN)  kcat (NC(=O)c1ccc[n+]([C@@H]2O[C@H](COP(=O)(O)OP(=O)(O)OC[C@H]3O[C@@H](n4cnc5c(N)ncnc54)[C@H](OP(=O)(O)O)[C@@H]3O)[C@@H](O)[C@H]2O)c1; pH 8, racemic G3P, cofactor varied, with: NADP+): 22 ± 2 s⁻¹

A few entries again:
IYD (Homo sapiens, UniProt Q6PHW0)  kcat (Cc1cc(C[C@H](N)C(=O)O)cc(I)c1O; pH 7.4, 25 °C, with: sodium dithionite 0.5%): 0.76 ± 0.05 s⁻¹
B4 (cyc1 V329M)  kcat (CC(C)=CCC/C(C)=C/CC/C(C)=C/CO[P@@](=O)(O)OP(=O)(O)O; pH 6.5, 30 °C, with: MgCl2 10 mM): 0.00064 ± 4e-06 s⁻¹
